Results pooled from the literature.
Lines come from different studies, so protocols differ. pIC50: −log10 of the molar value.
PFF0160c E182D: Dihydroorotate dehydrogenase (quinone), mitochondrial (PFF0160c, Plasmodium falciparum, UniProt Q08210, E182D)
HTR2C: 5-hydroxytryptamine receptor 2C (HTR2C, Homo sapiens, UniProt P28335)
Sequence of UniProt P28335 (whole entry, looked up): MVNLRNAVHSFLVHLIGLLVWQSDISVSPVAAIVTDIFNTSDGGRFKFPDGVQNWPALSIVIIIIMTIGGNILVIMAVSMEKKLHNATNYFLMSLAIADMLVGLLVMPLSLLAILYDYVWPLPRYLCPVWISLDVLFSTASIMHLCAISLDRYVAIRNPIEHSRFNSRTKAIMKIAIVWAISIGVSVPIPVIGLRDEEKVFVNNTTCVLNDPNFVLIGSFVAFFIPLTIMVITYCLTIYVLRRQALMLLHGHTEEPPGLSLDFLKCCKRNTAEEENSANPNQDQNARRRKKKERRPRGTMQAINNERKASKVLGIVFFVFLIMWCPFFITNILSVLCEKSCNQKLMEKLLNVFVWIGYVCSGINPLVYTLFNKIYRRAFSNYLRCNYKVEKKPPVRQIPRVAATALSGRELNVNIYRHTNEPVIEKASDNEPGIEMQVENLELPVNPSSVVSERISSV
TMPRSS2: Transmembrane protease serine 2 (TMPRSS2, Homo sapiens, UniProt O15393)
Sequence of UniProt O15393 (whole entry, looked up): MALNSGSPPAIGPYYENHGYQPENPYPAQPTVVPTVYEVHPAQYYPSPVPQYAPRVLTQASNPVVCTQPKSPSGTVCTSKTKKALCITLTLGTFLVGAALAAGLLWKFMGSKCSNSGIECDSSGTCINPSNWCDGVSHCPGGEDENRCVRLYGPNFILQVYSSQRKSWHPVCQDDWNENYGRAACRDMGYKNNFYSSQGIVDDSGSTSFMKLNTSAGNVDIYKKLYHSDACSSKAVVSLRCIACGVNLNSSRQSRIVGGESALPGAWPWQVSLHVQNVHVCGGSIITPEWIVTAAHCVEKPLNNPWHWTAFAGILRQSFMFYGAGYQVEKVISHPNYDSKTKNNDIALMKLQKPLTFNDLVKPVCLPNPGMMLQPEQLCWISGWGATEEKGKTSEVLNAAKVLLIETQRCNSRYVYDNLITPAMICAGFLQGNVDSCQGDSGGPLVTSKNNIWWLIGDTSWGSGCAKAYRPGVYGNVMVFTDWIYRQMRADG
tmk: Thymidylate kinase (tmk, Mycobacterium tuberculosis, UniProt P9WKE1)
Htr2c: 5-hydroxytryptamine receptor 2C (Htr2c, Mus musculus, UniProt P34968)
Sequence of UniProt P34968 (whole entry, looked up): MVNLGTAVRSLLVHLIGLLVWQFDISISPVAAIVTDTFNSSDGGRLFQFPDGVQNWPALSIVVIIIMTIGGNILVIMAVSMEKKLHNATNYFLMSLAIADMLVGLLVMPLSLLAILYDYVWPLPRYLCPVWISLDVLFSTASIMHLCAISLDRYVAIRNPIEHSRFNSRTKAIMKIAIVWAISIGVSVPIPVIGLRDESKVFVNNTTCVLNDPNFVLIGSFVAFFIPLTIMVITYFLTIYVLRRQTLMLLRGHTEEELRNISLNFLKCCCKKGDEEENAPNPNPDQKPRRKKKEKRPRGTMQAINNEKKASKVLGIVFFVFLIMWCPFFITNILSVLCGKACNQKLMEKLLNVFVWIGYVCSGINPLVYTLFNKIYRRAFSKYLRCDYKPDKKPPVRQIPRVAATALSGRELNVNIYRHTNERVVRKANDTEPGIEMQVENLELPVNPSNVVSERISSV
Sequence of UniProt Q9Y6R4 (whole entry, looked up): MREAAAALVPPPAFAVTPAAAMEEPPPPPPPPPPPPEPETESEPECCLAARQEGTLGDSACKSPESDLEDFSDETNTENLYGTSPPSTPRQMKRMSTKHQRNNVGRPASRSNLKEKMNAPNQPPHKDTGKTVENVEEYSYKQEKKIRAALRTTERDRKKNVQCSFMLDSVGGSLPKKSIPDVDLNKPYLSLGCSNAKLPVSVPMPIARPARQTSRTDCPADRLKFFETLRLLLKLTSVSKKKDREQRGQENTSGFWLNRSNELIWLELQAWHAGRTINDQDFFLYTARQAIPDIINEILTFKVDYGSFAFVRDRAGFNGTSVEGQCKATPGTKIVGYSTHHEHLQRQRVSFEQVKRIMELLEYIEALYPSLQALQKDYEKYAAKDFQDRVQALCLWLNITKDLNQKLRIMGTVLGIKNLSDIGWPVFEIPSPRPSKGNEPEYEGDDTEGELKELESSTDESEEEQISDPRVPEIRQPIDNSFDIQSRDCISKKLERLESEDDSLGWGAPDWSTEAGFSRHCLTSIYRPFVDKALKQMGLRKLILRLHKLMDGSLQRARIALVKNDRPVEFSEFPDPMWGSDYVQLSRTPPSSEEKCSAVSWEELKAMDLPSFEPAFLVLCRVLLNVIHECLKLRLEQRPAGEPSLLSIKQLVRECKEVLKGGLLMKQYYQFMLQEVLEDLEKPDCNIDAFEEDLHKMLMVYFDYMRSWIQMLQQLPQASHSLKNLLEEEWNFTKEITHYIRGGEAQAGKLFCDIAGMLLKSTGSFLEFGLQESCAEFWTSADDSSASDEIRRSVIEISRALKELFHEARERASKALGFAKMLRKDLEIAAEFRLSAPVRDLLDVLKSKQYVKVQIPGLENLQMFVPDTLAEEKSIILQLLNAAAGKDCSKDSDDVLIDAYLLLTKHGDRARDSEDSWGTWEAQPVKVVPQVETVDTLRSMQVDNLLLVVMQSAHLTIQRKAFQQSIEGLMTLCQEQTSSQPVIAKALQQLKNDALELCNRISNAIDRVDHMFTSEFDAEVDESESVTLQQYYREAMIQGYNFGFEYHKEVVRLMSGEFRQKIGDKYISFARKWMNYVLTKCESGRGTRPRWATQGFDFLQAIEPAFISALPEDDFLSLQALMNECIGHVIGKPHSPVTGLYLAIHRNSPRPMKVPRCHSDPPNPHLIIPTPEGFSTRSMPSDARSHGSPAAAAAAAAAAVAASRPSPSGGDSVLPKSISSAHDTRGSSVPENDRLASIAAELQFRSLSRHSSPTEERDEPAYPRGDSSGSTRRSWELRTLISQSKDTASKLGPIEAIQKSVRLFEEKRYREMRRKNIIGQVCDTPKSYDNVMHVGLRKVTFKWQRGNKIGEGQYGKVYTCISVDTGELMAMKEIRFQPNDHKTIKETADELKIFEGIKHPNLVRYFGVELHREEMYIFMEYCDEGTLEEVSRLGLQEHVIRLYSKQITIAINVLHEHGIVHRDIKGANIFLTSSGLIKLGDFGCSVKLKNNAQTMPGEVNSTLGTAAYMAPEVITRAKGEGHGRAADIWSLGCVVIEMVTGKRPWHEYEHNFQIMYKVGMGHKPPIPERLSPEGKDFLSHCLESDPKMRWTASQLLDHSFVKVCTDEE
Sequence of UniProt Q00537 (whole entry, looked up): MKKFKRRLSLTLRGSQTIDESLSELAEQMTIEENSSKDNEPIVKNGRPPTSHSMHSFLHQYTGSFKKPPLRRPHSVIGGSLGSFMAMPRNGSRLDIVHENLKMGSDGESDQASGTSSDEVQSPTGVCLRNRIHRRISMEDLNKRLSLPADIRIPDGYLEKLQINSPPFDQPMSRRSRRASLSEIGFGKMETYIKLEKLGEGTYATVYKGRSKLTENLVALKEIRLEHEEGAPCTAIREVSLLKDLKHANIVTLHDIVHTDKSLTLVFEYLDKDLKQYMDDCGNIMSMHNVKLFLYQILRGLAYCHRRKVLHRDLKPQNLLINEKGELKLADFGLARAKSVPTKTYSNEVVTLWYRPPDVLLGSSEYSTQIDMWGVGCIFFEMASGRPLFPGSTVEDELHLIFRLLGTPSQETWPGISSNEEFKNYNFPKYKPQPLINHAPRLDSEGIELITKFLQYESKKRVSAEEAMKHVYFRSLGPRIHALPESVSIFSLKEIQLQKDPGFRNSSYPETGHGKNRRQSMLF

| SMILES | tested on | test | system | setting | measurement | value |
| --- | --- | --- | --- | --- | --- | --- |
| Cl.O=C(N[C@H]1CC[C@@]2(O)[C@H]3Cc4ccc(O)c5c4[C@@]2(CCN3CC2CC2)[C@H]1O5)c1ccc(C(F)(F)F)s1 | HEK293 | GTPγS binding, agonist, radiometric |  |  | Emax | 29.4% |
| COc1ccccc1Cn1ccnc1SCC(=O)Nc1cccc(C(F)(F)F)c1 | PFF0160c E182D | enzyme activity, inhibitor, absorbance |  |  | pIC50 | 5.30 |
| COc1cc(CCNCc2ccccc2)c(OC)cc1C#N | HTR2C | calcium signal, agonist |  |  | Emax | 91% |
| N.N.[Cl][Pt][Cl] | REH | cell growth or viability, ATP luminescence |  | 10 µM, 72 h | inhibition | 100% |
| COC(=O)c1cc(-c2cccc(NC(=O)Nc3ccc(Cl)cc3)c2)on1 | Pseudomonas aeruginosa | microbial growth, broth dilution | ATCC27853 |  | MIC | > 64 µg/mL |
| N=C(N)NCCCCC(=O)N[C@@H](CCC(N)=O)C(=O)N[C@@H](Cc1c[nH]cn1)C(=O)N[C@@H](CCCNC(=N)N)C(=O)c1nc2ccccc2s1 | TMPRSS2 | enzyme activity, inhibitor |  | 1 nM | activity vs control | 84% |
| [2H]c1c([2H])c([C@]2([2H])CCCN2C(=O)C(C)(C)Oc2ccc3cn[nH]c3c2)c([2H])c([2H])c1C([2H])([2H])[2H] | Cyclin-dependent kinase 17 (CDK17, Homo sapiens, UniProt Q00537) | binding, competition with immobilised ligand |  | 1 µM | remaining binding | 81% |
| CC[C@H](C)[C@H](NC(=O)[C@H](Cc1ccccc1)NC(=O)[C@H](CCC(=O)O)NC(=O)[C@H](CCCNC(=N)N)NC(=O)[C@H](C)NC(=O)[C@H](C)NC(=O)[C@H](CCC(N)=O)NC(=O)[C@H](CCC(=O)O)NC(=O)[C@H](CCC(=O)O)NC(=O)[C@H](CC(C)C)NC(=O)[C@H](Cc1ccc(O)cc1)NC(=O)[C@H](CO)NC(=O)[C@H](CO)NC(=O)[C@@H](NC(=O)[C@H](CC(=O)O)NC(=O)[C@H](CO)NC(=O)[C@@H](NC(=O)[C@H](Cc1ccccc1)NC(=O)[C@@H](NC(=O)CNC(=O)[C@H](CCC(=O)O)NC(=O)[C@H](C)NC(=O)CCc1c[nH]cn1)[C@@H](C)O)[C@@H](C)O)C(C)C)C(=O)N[C@@H](C)C(=O)N[C@@H](Cc1c[nH]c2ccccc12)C(=O)N[C@@H](CC(C)C)C(=O)N[C@H](C(=O)N[C@@H](CCCNC(=N)N)C(=O)NCC(=O)N[C@@H](CCCNC(=N)N)C(=O)N[C@@H](CCCCNC(=O)COCCOCCNC(=O)COCCOCCNC(=O)CC[C@H](NC(=O)CCCCCCCCCCCCCCCCC(=O)O)C(=O)O)C(=O)NCC(=O)NCC(=O)N[C@@H](CO)C(=O)N[C@@H](CCCCNc1c(NCCCCCN(O)C(=O)CCC(=O)NCCCCCN(O)C(=O)CCC(=O)NCCCCCN(O)C(C)=O)c(=O)c1=O)C(=O)O)C(C)C |  |  | rat, plasma | subcutaneous, 20 nmol/kg | bioavailability | 50.8% |
| CCOC(=O)C1=C(C)NC(=NN=c2[nH]c3ccccc3[nH]c2=O)NC1c1ccc(F)cc1 (centres unmarked) | tmk | enzyme activity, inhibitor, absorbance |  | 0.1 µg/mL | inhibition | 46.1% |
| N=C(N)NCCC[C@@H](NC(=O)[C@H](Cc1ccc(O)cc1)NC(=O)[C@H](Cc1cscn1)NC(=O)CCc1ccccc1)C(=O)c1nc2ccccc2s1 | TMPRSS2 | enzyme activity, inhibitor |  | 1 nM | activity vs control | 33% |
| Nc1ncc(-c2nc(N3CCOCC3)nc(N3CCOCC3)n2)c(C(F)F)n1 | Epidermal growth factor receptor (EGFR, Homo sapiens, UniProt P00533, A750P/del747-749) | cell-free assay, competition with immobilised ligand |  | 10 µM | remaining binding | 63% |
| CC(=O)S(=O)(=O)c1ccc(C(=O)N[C@H]2CC[C@@]3(O)[C@H]4Cc5ccc(O)c6c5[C@@]3(CCN4CC3CC3)[C@H]2O6)s1.Cl | HEK293 | GTPγS binding, agonist, radiometric |  |  | Emax | 26.7% |
| COc1cnc(OC)n2nc(NS(=O)(=O)c3c(OCC(F)F)cccc3C(F)(F)F)nc12 | L02 | cell growth or viability, CCK-8 |  | 6.25 µM, 72 h | inhibition | 0% |
| C#Cc1n[nH]c2c(-c3cn(C(C)c4ccccn4)c(=O)[nH]c3=O)cc(F)cc12 (centres unmarked) | DNA-dependent protein kinase catalytic subunit (PRKDC, Homo sapiens, UniProt P78527) | enzyme activity, inhibitor |  | 1 µM | inhibition | 12.8% |
| Cl.O=C(N[C@H]1CC[C@@]2(O)[C@H]3Cc4ccc(O)c5c4[C@@]2(CCN3CC2CC2)[C@H]1O5)c1ccc(C(F)F)s1 | HEK293 | GTPγS binding, agonist, radiometric |  |  | Emax | 27.2% |
| COc1cc(CCNC(C)c2ccccc2O)c(OC)cc1C#N (centres unmarked) | Htr2c | G protein activation, agonist, BRET |  |  | Emax | 98% |
| CCCn1c(O)nnc1SCC(=O)Nc1cc(C(F)(F)F)ccc1Cl | PFF0160c E182D | enzyme activity, inhibitor, absorbance |  |  | pIC50 | 6.26 |
| CCOC(=O)C1=C(C)NC(=O)NC1c1ccc([N+](=O)[O-])o1 (centres unmarked) | tmk | enzyme activity, inhibitor, absorbance |  | 0.01 µg/mL | inhibition | 34.8% |
| Cc1nn(C)cc1-c1nc2c(N3CCN(Cc4ccc(Cl)cc4)CC3)c(Cl)cnc2[nH]1 | Tyrosine-protein kinase ABL1, phosphorylated (ABL1, Homo sapiens, UniProt P00519, T315I) | binding, competition with immobilised ligand |  | 1 µM | remaining binding | 85% |
| COc1cc(CCNC(C)c2ccccc2O)c(OC)cc1Br (centres unmarked) | Htr2c | G protein activation, agonist, BRET |  |  | Emax | 102% |
| N=C(N)NCCCCC(=O)N[C@@H](CCC(N)=O)C(=O)N[C@@H](Cc1ccc2ccccc2c1)C(=O)N[C@@H](CCCNC(=N)N)C(=O)c1nc2ccccc2s1 | TMPRSS2 | enzyme activity, inhibitor |  | 1 nM | activity vs control | 86% |
| CCC(NCCc1cc(OC)c(C#N)cc1OC)c1ccccc1O (centres unmarked) | HTR2C | calcium signal, agonist |  |  | Emax | 42% |
| COc1ncccc1-c1cnn2ccc(N3CCN(C(=O)OC(C)C)CC3)nc12 | Mitogen-activated protein kinase kinase kinase 4 (MAP3K4, Homo sapiens, UniProt Q9Y6R4) | binding, competition with immobilised ligand |  | 1 µM | remaining binding | 73% |

A few entries again:
| SMILES | tested on | test | system | setting | measurement | value |
| --- | --- | --- | --- | --- | --- | --- |
| COc1ncccc1-c1cnn2ccc(N3CCN(C(=O)OC(C)C)CC3)nc12 | Mitogen-activated protein kinase kinase kinase 4 (MAP3K4, Homo sapiens, UniProt Q9Y6R4) | binding, competition with immobilised ligand |  | 1 µM | remaining binding | 73% |
| CCOC(=O)C1=C(C)NC(=NN=c2[nH]c3ccccc3[nH]c2=O)NC1c1ccc(F)cc1 (centres unmarked) | tmk | enzyme activity, inhibitor, absorbance |  | 0.1 µg/mL | inhibition | 46.1% |
